# Experimental data from different studies.
# Each numbered part is a random draw from the data of one study; scales do not carry over between parts.

# Set 1 — method: protein-binding microarray; molecule type: double-stranded DNA, one strand shown; medium: in vitro; concentration: 2540 nM top; notes: 60-bp whole probe; with: salmon DNA 0.4 mg/ml; reference: random background probes; reading: higher = stronger binding; shared flanks, not repeated: GCCTAGCAC … GTCTTGATTCGCTTGACGCTGCTG
# Target: Interferon regulatory factor 3, full length, phosphomimetic (IRF3, Homo sapiens, UniProt Q14653, residues 1-427, S386D/S396D/S398D/S402D/T404D/S405D)
# UniProt Q14653, sequence (whole entry, unmodified, looked up): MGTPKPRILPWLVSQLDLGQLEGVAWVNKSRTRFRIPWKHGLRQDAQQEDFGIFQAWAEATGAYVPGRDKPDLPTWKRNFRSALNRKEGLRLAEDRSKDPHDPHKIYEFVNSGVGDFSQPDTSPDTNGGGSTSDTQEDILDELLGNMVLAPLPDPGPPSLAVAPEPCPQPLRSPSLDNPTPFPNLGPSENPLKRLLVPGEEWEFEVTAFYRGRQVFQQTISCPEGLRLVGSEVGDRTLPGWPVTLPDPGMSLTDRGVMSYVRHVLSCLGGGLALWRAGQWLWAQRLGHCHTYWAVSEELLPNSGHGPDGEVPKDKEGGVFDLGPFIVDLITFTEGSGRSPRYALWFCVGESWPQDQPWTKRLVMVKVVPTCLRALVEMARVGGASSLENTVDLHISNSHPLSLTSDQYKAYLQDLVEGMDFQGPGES
Strand,fitted relative affinity
TCTGTTTTTGCTTTCCTTCTGTGCTAG,3.99 z-score
TTAGGGCTCCTTATCCTTTAGTGCTAG,1.5 z-score
TTACGACTGGGACTGGGTTAGTGCTAG,-0.833 z-score
TTAGGTTTCGGAACTGGGTTAGTGCTA,7.64 z-score
TCAGTTCTAAATATCTTACTGTGCTAG,1.35 z-score
AATTTTTTGTATTTTTAGTGGTGCTAG,0.684 z-score
TTAGTACTGGGGTATCGGTTAGTGCTA,0.242 z-score
TAAGGACTGCTTCTCCTTTAGTGCTAG,0.0463 z-score
GACGGACTGCTTCTCCCGACGTGCTAG,-0.198 z-score
TCATATATACTATATGCAACTGTGCTA,0.576 z-score
GACGGTTCCCTTATCCTGACGTGCTAG,3.51 z-score
TTAGGACTGGACAATCGGTTAGTGCTA,-0.532 z-score
GAAGGTCTCGGTCTCGGGACGTGCTAG,0.648 z-score
GACGGTTTCGGGTATCGTGACGTGCTA,4.01 z-score
GACGATATCGGGACTGGAGATGTGCTA,0.00755 z-score
GATGTTTTTCATTTTTTTTCGTGCTAG,1.53 z-score
GACGGTTTCCTTTTTCTGACGTGCTAG,10.2 z-score
GTAGGACTGGGGTTTCGGTTAGTGCTA,2.26 z-score
ACTTTTTTTAATTGAGAAGCGTGCTAG,1.27 z-score
GACCATTTCGGGTATCGAGACGTGCTA,2.3 z-score
CTTCTTTTTTTTCTTTAAAAGTGCTAG,3.66 z-score
GACGGTTTACTTATCCTGACGTGCTAG,2.15 z-score

# Set 2 — method: RNA Bind-n-Seq; molecule type: RNA; medium: in vitro; concentration: 200 nM; notes: whole 134-nt RNA, ends assumed; with: 150 mM LiCl; reference: input library; reading: higher = stronger binding; each molecule: 7-deaza-guanosine replaces G
# Target: Fragile X messenger ribonucleoprotein 1, C-terminal low-complexity region (Fmr1, Mus musculus, UniProt P35922)
# Shared flanks, not repeated: GGGAGUUCUACAGUCCGACGAUC … UGGAAUUCUCGGGUGUCAAGG
Strand,log2 enrichment
UGGGAGGUGGAUUUUGUUUAUUUUUUUAGCUCAUUUCCAGGGGUGGGAAUUUUUUUCUAAUAUGUGUCAUGAAUAAAGUUGUUUUUGAAA,-0.361
UCCUGUGCUACACAUCGUAUGUACCGAAUCGGGGAAAGGGGUUUGGGGUUUUUUUGGGGAAAGUAUUAUGUUACGCCGUUCGGAUCUGCA,-0.815
UGGGAGGUGGAUUUUGUUUAUUUUUUUAGCACAUUUCCAGGGGUGGGAAUUUUUUUUUAAUAUGUGUCAUGAAUAAAGUUGUUUUUGAAA,-0.059
UCAAGUCCUGUGCUACACAUCGUAUGUACCGAAUCGGGGUGGGGUGGGGAGGGGAAAGUAUUAUGUUACGCCGUUCGGAUCUGCACUUCC,-0.673
UAACUUUAGAGGAGGAUCUGAUGGAUAUGGCAGUGGACGUGGAUUUGGGGAUGGCUAUAAAGGGUAUGGAGGAGGACCUGGAGGUGGCAA,-0.194
CAAGUCCUGUGCUACACAUCGUAUGUACCGAAUCAAACCCAAAUUUAAAUUUAAAAAAGUAUUAUGUUACGCCGUUCGGAUCUGCACUUC,0.393
GUCCUGUGCUACACAUCGUAUGUACCGAAUCGGGGAAAGGGGAAAAAGGGGAAAGGGGAAAGUAUUAUGUUACGCCGUUCGGAUCUGCAC,1.18
CAAGUCCUGUGCUACACAUCGUAUGUACCGAAUCAAAUUUAAAUUUAAACCCAAAAAAGUAUUAUGUUACGCCGUUCGGAUCUGCACUUC,0.95
UCAAGUCCUGUGCUACACAUCGUAUGUACCGAAUCGGGUGGGUUUUUGGGAGGGAAAGUAUUAUGUUACGCCGUUCGGAUCUGCACUUCC,-0.545
UAACUUUAGAGGAGGAUCUGAUGGAUAUGGCAGUGGACGUGGAUUUGGGGAUGGCUAUAAUGGGUAUGGAGGAGGACCUUGAGGUGGCAA,0.256
CCUCAAGUCCUGUGCUACACAUCGUAUGUACCGAAUCGGUGGAGGUUUUUGGAAAGUAUUAUGUUACGCCGUUCGGAUCUGCACUUCCAG,0.379

# Set 3 — method: RNA Bind-n-Seq; molecule type: RNA; medium: in vitro; concentration: 365 nM; reference: no-protein control; reading: higher = stronger binding
# Target: RNA binding protein fox-1 homolog 2, RRM domain, GST-SBP tag (RBFOX2, Homo sapiens, UniProt O43251-10, residues 100-194)
# Notes: natural RNA segment, single round, ends assumed
# Shared flanks, not repeated: GGGAGUUCUACAGUCCGACGAUC … UGGAAUUCUCGGGUGCCAA
# Residues (chain): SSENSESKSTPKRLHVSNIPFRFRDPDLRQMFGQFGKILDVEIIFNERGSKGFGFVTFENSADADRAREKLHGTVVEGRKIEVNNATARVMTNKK
Strand,RBNS enrichment (R)
CUAAUUAAACAUGCCAAAAGGAAAAAGUAAGAGAAAGAGGGAGCAAGAAGAAAAUGGAAGAAAAAGGGAAAAAAGCUAACCGGAUAACCAAUUUGUUAUAAGUUGGUUUU,1.14
UGGCCCCCUCAUUCAGAGACUGCCCUUCUCACGGGCUCUAUGCCUGCACUGGGAAGGAAACAAAUGUGUAUAAACUGCUGUCAAUAAAUGACACCCAGACCUUCCGGCUC,0.259
CCAGCAUCCCCAAACUGGUACUCCCUGACCCAGGGCCCCAAACCUGGGCUCUUACAGAGCCUCCAUGAGUCAAGCCCCCUCCCCACACCUGGACUCCAGAAUUCACCCUC,0.472
AGGGGAUUCUGACAUCUGCCUUGGAAGAUGAUAGAGUCCACCUGGGGCCCAGAGAGCUGGAGCAGGAUGGAGUGGGGGCCAGUCGCCAAGGCCGCCCAGCUGCUGUGACU,0.461
AUUCUCCCUUCCUCCUCCUUCUUUUCUAUUGGGGCCCUCAACAGAUUGGAUGGAGUGGAUGUCUUCACUCAGUCUGCCAAUUCCCAUCCUAACCUCUUCUGGAAACACCC,0.711
GGGGUGCGUGGAGGAGAGGCCUGGGCUCCUCUACUGGAUCUACACUCUGUCCCAGGUUUUUAGAUCCCACUGAGCCCAGCUGACUGAAAACAAGGACAGUCAGGGUGAAA,0.509
AUGGCCUCACCUGGCAGCCCUCUGGCCUAGUUCCCACCACACAUGAGGUGGUGGAAUGGCCUGAAGGUGGAACAGACCUGUUUUUUUCCUUUUUAAAUGCAGUAAGGUGG,0.297
GUGACAAGUGGUCCUCACCAGUGUUAAGUGCUUCUGGAUUCAUGGGUGAGUUCCUUGGACGACCCCAGACAGGCUUCUGGAUCUGGCUCCAGGGUCAUCACAUGUCAAAG,0.206
GAGAAAAAUACCUAAGGCUCAGGCUCACCAGCUCAGCCAAAUCUGCAAGUACCAGACCAGUGAACAGCUCCGGAGGAACAGGUUGUUCUCUGACCUCUACACGUAUGCCA,0.692
CGGAGUGCAGUGGUGCAAUCUCAGCUCACUGCAACCUCCACCUCCUGGGUUCAAGCAAUUCUCCUGCUUCAGCCUCCCGAGUAGCUGGGAUUACAGGUGUGUACCACCAC,0.208
ACGGGUCUGUAGUUGAGGACGAGAUUGAGAGCUGUUAAUCCACCAAAUGCAAUGGCUCAGAACAAUUAAGCACUGCCUUUCGUCUUUCUUUGUAACUCACUUGGUAAAAG,0.419
GGGCAAAAACCAAUUCGCUUCUCCCCACGUUCUAAAUGCUGGGGCAUGGCUGUCAGGAGGGCUUCCUGGGAGGUGUCUCUGGGGGUGGGGUGAGGUUGGGGCGAUGGCCU,0.414

# Set 4 — method: RNA Bind-n-Seq; molecule type: RNA; medium: in vitro; concentration: not given; notes: RNA with constant flanks, ends assumed; reference: input RNA pool; reading: higher = stronger binding
# Target: RING finger protein unkempt homolog, zinc fingers 1-6, GST-SBP tag (UNK, Homo sapiens, UniProt Q9C0B0, residues 30-357)
# Shared flanks, not repeated: GGGAGUUCUACAGUCCGACGAUC … CAACAGAGGAUUGAGCAUCA
# Target sequence (chain): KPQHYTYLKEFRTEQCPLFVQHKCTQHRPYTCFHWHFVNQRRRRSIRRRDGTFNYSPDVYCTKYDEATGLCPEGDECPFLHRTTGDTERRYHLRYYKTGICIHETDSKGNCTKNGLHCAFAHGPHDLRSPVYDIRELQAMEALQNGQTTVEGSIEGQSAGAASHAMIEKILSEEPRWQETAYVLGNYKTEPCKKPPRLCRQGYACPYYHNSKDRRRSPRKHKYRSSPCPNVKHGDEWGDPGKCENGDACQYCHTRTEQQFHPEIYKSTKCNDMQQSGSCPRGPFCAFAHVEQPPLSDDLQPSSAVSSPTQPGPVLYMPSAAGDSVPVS
Strand,bound/input enrichment [ratio]
AGAAGUACACAGGCUGCUACCCAAGUUGUUCUGAAUGUUCCUGAAACAAGAGUAACAUGUUCCGAAAGUGGACUCAGAGUAGCUUCGGAAGACUCUGGGCUCUCAACAUGCACAGUUGGA,0.109
UACGGGACCCUGGACACUCACCUGGUGUACUCAGAAGAGUCCCCUCUGAGCUGAGACCGUGCCCGGCUGCUGUGCAGUUUGGCGCAGUGACAGACCCGGCUUUUGUUUCUGGGCUUCCAG,0.0436
GGCCUGACAAAUUAUGCUGCAGCAUAUUGUACUGGCCUGCUGCUGGCCCGCAGGCUUCUCAACCGGUUUGGCAUGGACAAGAUCUAUGAAGGCCAAGUGGAGGUGACUGGUGAUGAAUAC,0.239
UUACAUUAAAAAUCAUUGUACUUGCACAACUUAAUUUAGAAAAAGAAUGUGUAUUUCUUCAACCGCCGAGCAUAAGGAUUGCACCCUGUAUCUGAAUGUGGCUCUUUGGAUGGAAGUGCA,1.33
GCAGGGAUCCUGUCAGCCCUGGGUUCUAAGACAUCACUGAUGAUACGGCAUGAUAAGGUACUCCGAAGUUUUGAUUCAAUGAUCAGCACCAACUGCACGGAGGAGCUGGAGAACGCUGGC,0.124
CGCCUGGAUGAGGCUGGUGUUACUGAUGAAGUGCUGGAUUCUGCCAUGCAAGCCUUCUUACCCGAAAUUAUCGUUAAGCAUGGGGAGCCAGCCCCUUAUUUAUGUAAUAAAGAUCCUUUU,0.204
GCUGAAAAUGAAGAAGAGGCAGCUGAUGUCUGGUACAACUUGGGACAUGUAGCUGUGGGAACCGGAGAUACAAAUUUGGCCCAUCAGUGCUUCAGGCUGGCUCUGGUCAACAACAACAAC,0.142
GAAGAAGCCCAUAAACUCCCAGUAAAACAUUUUACUAAUCCAUAUUGUAACAUCUACCUGAACCGUGUCCAAGUAGCAAAAACUCAUGCAAGGGAAGGGCAAAACCCAGUAUGGUCAGAA,0.27
GUGCUUUUAUUACUUUCAUCUAUACACUUCCAGUGUCGAAGGCUGGACAGAUCUGCUCACUUCCGCACUCUGGCAAUUAAACAGAACCCCCUUCUGGCAGAAGCUUAUUCGAAUUUGGGG,0.173
AUCCAGGCCCUUCGCUGGGUGAGUGAGAAUAUUGCCUUCUUUGGAGGAGAUCCCCGCCGAAUUACUGUCUUUGGCUCUGGCAUCGGUGCAUCCUGUGUCAGUCUCCUUACACUGUCUCAU,0.141
GAGACGGUGGAGGAAGAGAAGAGCCAGUCAGAUGUGGAUUUUCAGUCGUGCGAGUCUUGCCGCAGCAGCGAGAAAGCAGAAAAUGAGAGUGGCUCCAAAGGCUUUCCUGAGGACAGCAAU,0.232

# For quick reference, copied from above (set 1):
Strand,fitted relative affinity
GACGGACTGCTTCTCCCGACGTGCTAG,-0.198 z-score
TCATATATACTATATGCAACTGTGCTA,0.576 z-score
GACGGTTCCCTTATCCTGACGTGCTAG,3.51 z-score
